Measurements pooled from the literature.
Lines come from different studies, so protocols differ. ± gives the spread as reported.

CCN(CC)CCCC[C@H](NC(=O)[C@H](CC(C)C)NC(=O)[C@H](C)NC(=O)[C@H](Cc1ccccc1)NC(=O)c1ccc(C(C)(C)C)cc1)C(=O)N[C@@H](CO)C(=O)OC  plasma concentration (male Swiss Albino mice, plasma; intraperitoneal, 10 mg/kg, 1 h): 559 ng/mL
CCS(=O)(=O)Nc1ccc(Oc2ccc(F)cc2F)c(-c2cn(C)c(=O)c3[nH]ccc23)c1  treatment-emergent adverse events (fatal septic shock; human, relapsed/refractory AML; oral, dose not given): 0%
CC(=O)c1c(C)c2cnc(Nc3ccc(C4CCN(CCS(C)(=O)=O)CC4)cn3)nc2n(C2CCCC2)c1=O  Tmax (human, plasma; oral, 50 mg, day 1 single dose): 2.33 h
CCCC1CCC(C2CCC(c3ccc(F)c(F)c3)CC2)CC1 (stereo not drawn)  median fetal accumulation (rat, fetus; 10 ng/mL in perfusate, low dose, mixture of 21 LCMs): 0.133 ng/g
CCN1[C@@H](C(=O)NC23CCC(C(=O)O)(CC2)CC3)[C@H](c2cccc(Cl)c2F)[C@]2(C(=O)Nc3cc(Cl)ccc32)C12CCCCC2  grade 3/4 neutropenia incidence (patients with advanced solid tumours; oral, dose not given, all doses): 23.8%
C[C@]1(O)C[C@@](N)(c2ccc(-c3nc4n(c3-c3ccccc3)COc3ccncc3-4)cc2)C1  patients with Hyperphosphatemia TEAE (human, advanced or metastatic solid tumours; 28 mg intermittent, phase I dose escalation): 33.3%
N#Cc1ccc(COc2cccc(C(=O)Nc3ccc4c(c3)B(O)OC4)c2)cc1  membrane retention (PAMPA; 200 µM, 5 h, pH 7.4): 14.8%
O=C(Nc1ccccc1)C1CCN(C(=O)Oc2cccnc2)CC1  adverse event Constipation (healthy women; oral, 20 mg, 7 days): 7.1%
CN1CC[C@@H](c2c(O)cc(O)c3c(=O)cc(-c4ccc(C(F)(F)F)cc4Cl)oc23)[C@@H]1CO  patients with adverse event (refers to: Sepsis; B-cell malignancies or AML; oral, 50 mg, continuous dosing): 0%
C[C@]1(CO)Cc2ncn(-c3ccc(C#N)c(Cl)c3)c2C(=O)O1  subjects with drug-related dysgeusia (human; 10 mg single dose): 0%
COc1ncccc1-c1cnn2ccc(N3CCN(C(=O)OC(C)C)CC3)nc12  drug concentration (mouse, SNL model, brain; oral, 10 mg/kg, 30 min): 14 µM
COc1cc2c(Oc3ccc4[nH]c(C)cc4c3F)ccnc2cc1OCC1(N)CC1  weight loss incidence (paediatric refractory sarcoma patients; 8 mg): 25%
CC[C@H](C)[C@H](NC(=O)[C@H](C)NC(=O)[C@H](CCCCN)NC(=O)[C@H](CC(C)C)NC(=O)[C@H](C)NC(=O)[C@@H](NC(=O)[C@H](Cc1c[nH]cn1)NC(=O)[C@H](CC(C)C)NC(=O)[C@@H](NC(=O)[C@@H](NC(=O)[C@H](CCCCN)NC(=O)[C@H](C)NC(=O)[C@H](C)NC(=O)[C@H](CO)NC(=O)[C@H](CCCCN)NC(=O)[C@H](Cc1ccccc1)NC(=O)[C@@H](NC(=O)[C@H](CCCCN)NC(=O)[C@H](CC(C)C)NC(=O)[C@H](Cc1ccccc1)NC(=O)[C@H](CO)NC(=O)[C@H](CCCCN)NC(=O)[C@H](Cc1c[nH]c2ccccc12)NC(=O)[C@H](CCCCN)NC(C)=O)[C@@H](C)O)[C@@H](C)O)C(C)C)[C@@H](C)O)C(=O)N[C@@H](CO)C(=O)N[C@@H](CO)C(N)=O  NOAEL (minipig; topical on skin, 30 days): 200 mg/pig
Oc1c(Cl)cc2c(c1Cl)Oc1cc(Cl)c(Cl)cc1O2  dose fraction in skim milk (whole cow milk; 500 nM nominal): 43.7%
C[C@@H](NC(=O)N1C(=O)[C@H](Cc2ccnc(N)c2)[C@H]1C(=O)O)C1CCCCC1  incidence of urine ketone body positive (healthy adult Chinese volunteers; continuous intravenous infusion, 0.6 mg/kg/h, 5-day infusion, CTCAE 5.0 grading): 12.5%
CC(C)CC(=O)OC[C@H]1O[C@@](C#N)(c2ccc3c(N)ncnn23)[C@H](O)[C@@H]1O  NOAEL (beagle dog both sexes; oral, cardiovascular safety pharmacology): 100 mg/kg/day
CCCCCCCCCCCCCCCC(=O)N[C@@H](CCC(=O)NCCCC[C@H](NC(=O)[C@H](CC(=O)O)NC(=O)[C@H](CO)NC(=O)[C@@H](NC(=O)[C@H](Cc1ccccc1)NC(=O)[C@@H](NC(=O)CNC(=O)[C@H](CCC(N)=O)NC(=O)[C@H](CO)NC(=O)[C@@H](N)Cc1c[nH]cn1)[C@@H](C)O)[C@@H](C)O)C(=O)N[C@@H](CO)C(=O)N[C@@H](CCC(=O)O)C(=O)N[C@@H](Cc1ccc(O)cc1)C(=O)N[C@@H](CC(C)C)C(=O)N[C@@H](CC(=O)O)C(=O)N[C@@H](CO)C(=O)N[C@@H](CCC(=O)O)C(=O)N[C@@H](CCCNC(=N)N)C(=O)N[C@@H](C)C(=O)N[C@@H](CCCNC(=N)N)C(=O)N[C@@H](CC(=O)O)C(=O)N[C@@H](Cc1ccccc1)C(=O)N[C@H](C(=O)N[C@@H](C)C(=O)N[C@@H](Cc1c[nH]c2ccccc12)C(=O)N[C@@H](CC(C)C)C(=O)N[C@@H](CCC(=O)O)C(=O)N[C@@H](C)C(=O)NCC(=O)NCC(=O)O)C(C)C)C(=O)O  abdominal distension (human, CrCl < 20 mL/min; sc, 100 µg single dose): 0%
Clc1ccc(-c2ccccc2)cc1  alkaline phosphatase (Sprague-Dawley rat, female, serum; inhalation, 35 µg/rat, 24 h): 130 ± 33 U/L
CO[C@H]1C[C@@H]2CC[C@@H](C)[C@@](O)(O2)C(=O)C(=O)N2CCCC[C@H]2C(=O)O[C@H]([C@H](C)C[C@@H]2CC[C@@H](OC(=O)NCCOCCOCCOCCOCCOCCOCCOCCOCCC(=O)N3CCc4cc(Cn5nc(-c6ccc7oc(N)nc7c6)c6c(N)ncnc65)ccc4C3)[C@H](OC)C2)C[C@@H](O)[C@H](C)/C=C(\C)[C@@H](O)[C@@H](OC)C(=O)[C@H](C)C[C@H](C)/C=C/C=C/C=C/1C  abdominal pain incidence (patients with advanced solid tumours; intravenous, 16 mg weekly, any grade): 25%
CC(C)(c1ccccc1)c1cc(-n2nc3ccccc3n2)c(O)c(C(C)(C)c2ccccc2)c1  daily dermal uptake, percentile (exposure assessment; human, age 2-3 years; concentration not given, spray sunscreen, 95th percentile): 74.4 ng/kg body weight/day
CCC[C@@](N)(CO)CCc1ccc(OCCCCCC(C)C)cc1  AUC(0-last) (hound dogs, male; intravenous, 1.0 mg/kg, geometric mean): 4.44 µM·h
O=C(O)CCC(CP(=O)(O)O)C(=O)O (stereo not drawn)  measured concentration (rat plasma; 8 µg/mL, 4 h, room temperature, bench-top stability, diluted 1:10): 7.89 ± 0.17 µg/mL
COc1ccc([C@@H](O)c2cc(-c3ncnc4cc(N5CCOCC5)ccc34)c(F)cc2Cl)nn1  metabolism, nutrition disorders incidence (patients, advanced solid tumours; oral, 200 mg twice daily, treatment-emergent, added: avelumab): 7%
[O-][S+]1CCc2nc(N3CCC(c4ncc(Cl)cn4)CC3)nc(NC3(CO)CCC3)c21 (stereo not drawn)  adverse event incidence (refers to: nervous system disorders; healthy male humans; 36 mg single dose): 33.3%
Nc1ncnc2c1ncn2[C@@H]1O[C@@H]2COP(=O)([S-])O[C@@H]3[C@H](O)[C@@H](COP([O-])(=S)O[C@H]2[C@H]1O)O[C@H]3n1cnc2c(N)ncnc21.[Na+].[Na+] (stereo partly drawn)  amylase (non-tumor-bearing mice, serum; intravenous, 1 mg/kg, toxicity study): 886 ± 136 U/L
CC(=O)NCC(=O)NCC(=O)N[C@H](C(=O)N[C@@H](Cc1ccc(O)cc1)C(=O)N[C@@H](CO)C(=O)N[C@H]1CSSC[C@@H](C(=O)N[C@@H](CCCNC(=N)N)C(=O)N2CCC[C@H]2C(=O)N[C@@H](CCC(N)=O)C(=O)N[C@@H](CCCNC(=N)N)C(=O)NCC(=O)NCCC(=O)N[C@@H](CCCCNC(=O)CN(CC(=O)NCCCC[C@H](NC(=O)CCNC(=O)CNC(=O)[C@H](CCCNC(=N)N)NC(=O)[C@H](CCC(N)=O)NC(=O)[C@@H]2CCCN2C(=O)[C@H](CCCNC(=N)N)NC(=O)[C@@H]2CSSC[C@H](NC(=O)[C@H](CO)NC(=O)[C@H](Cc3ccc(O)cc3)NC(=O)[C@@H](NC(=O)CNC(=O)CNC(C)=O)[C@@H](C)O)C(=O)N[C@@H](Cc3c[nH]cn3)C(=O)N[C@@H](Cc3ccccc3)C(=O)NCC(=O)N[C@@H](C)C(=O)N[C@@H](CC(C)C)C(=O)N[C@@H]([C@@H](C)O)C(=O)N[C@@H](Cc3c[nH]c4ccccc34)C(=O)N[C@@H](C(C)C)C(=O)N2)C(N)=O)C(=O)CCN)C(N)=O)NC(=O)[C@H](C(C)C)NC(=O)[C@H](Cc2c[nH]c3ccccc23)NC(=O)[C@H]([C@@H](C)O)NC(=O)[C@H](CC(C)C)NC(=O)[C@H](C)NC(=O)CNC(=O)[C@H](Cc2ccccc2)NC(=O)[C@H](Cc2c[nH]cn2)NC1=O)[C@@H](C)O  serum concentration (MSD immunoassay; BALB/c mice, healthy female, serum; subcutaneous, 0.08 mg/kg, 24 h, LLOQ 2.0 ng/mL): not detected
CC(C)N(N=O)C(C)C  Ames mutagenicity (water; up to 5000 µg/plate): positive
